# Experimental data collected from several papers.
# Parts stem from different laboratories: compare values within a part only.

# Set 1 — method: universal PBM; molecule type: double-stranded DNA, one strand shown; matrix: in vitro; tested at: not given; reading: higher = stronger binding
# Target: Sal-like protein 4, full length isoform B (SALL4, Homo sapiens, UniProt Q9UJQ4-2, residues 1-616)
# Setting: 8-mer, flanks averaged, mean of replicates
Strand,E-score
CGACCAAG,-0.185
GGATCACA,0.0407
CGACAGTA,-0.0249
CCCAAATA,0.0203
TGAACGAA,0.0487
CAAGTGAC,-0.098
AGTGCTGC,-0.154
CGGTCCTA,-0.283
CTTGACTA,-0.0447
CTGACAAG,0.0275
AGGCTTGC,-0.11
ACTAACCT,0.0051
TAGCGACA,0.15
ACATTCAA,0.152
CTTTAAGC,0.0075
ATATTCAG,0.294
GATCCATC,-0.112
CGCTTATC,-0.0377
ACAGGTCT,-0.021
CTCATTAC,0.229
ATGTGGCC,-0.158
AGTGTCTC,-0.207
CCCTTATC,-0.0271
CTATACGA,0.068
CCGCGGCA,-0.226

# Set 2 — method: protein binding microarray; molecule type: double-stranded DNA, one strand shown; matrix: in vitro; tested at: not given; relative to: not given; reading: higher = stronger binding
# Target: Histone acetyltransferase KAT6A, winged helix 1, GST fusion (KAT6A, Homo sapiens, UniProt Q92794, residues 1-85)
# Setting: 8-mer, flanks averaged, mean of 2 arrays, mostly near background
# Residues (chain): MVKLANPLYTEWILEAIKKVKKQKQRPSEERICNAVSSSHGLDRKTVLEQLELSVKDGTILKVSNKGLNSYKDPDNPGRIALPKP
Strand,E-score
CTCTTCAC,-0.161
AAATCGTC,0.0315
CTGTGATA,-0.149
GGGGGTAC,0.116
GAGGCAAA,-0.233
ACTCGAGC,-0.135
CATCAAGG,-0.185
GAAAGCGA,0.0117
GGTCTGCA,0.0836
AGAATCGC,0.153
ATTTTGGA,-0.159
AAAGAAAT,-0.31
CCAGACAA,-0.234
AAGCGACA,0.117
GCACTGGA,-0.0994
CTCGGGGA,0.0249
CCCTCACC,-0.0826
CCAACCGA,-0.116
GTTAAGCA,0.0989
GAGCCCTA,0.00404
ACCATCGC,0.105
ACTACATC,-0.171
CAGCTTCC,0.00707
AACAGGTG,-0.281

# Set 3 — method: RNA Bind-n-Seq; molecule type: RNA; matrix: in vitro; tested at: 365 nM; relative to: no-protein control; reading: higher = stronger binding
# Target: RNA binding protein fox-1 homolog 2, RRM domain, GST-SBP tag (RBFOX2, Homo sapiens, UniProt O43251-10, residues 100-194)
# Setting: natural RNA segment, single round, ends assumed
# Target sequence (chain): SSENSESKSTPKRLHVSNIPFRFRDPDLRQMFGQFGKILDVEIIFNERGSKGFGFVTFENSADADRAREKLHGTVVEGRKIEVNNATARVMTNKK
Strand,RBNS enrichment (R)
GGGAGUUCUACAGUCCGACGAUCCUUAUUUUCCUGAGUUAGAUCCCAGCCCAUGCCCAGCUGGAAGGGUCUCUUUUGGGUCAAAAUCAGUCCUUCAGCUCUAAGGUUGCCCAGCAAAGGAAUCUAGGAAUGACUGGAAUUCUCGGGUGCCAA,0.242
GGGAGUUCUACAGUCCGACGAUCUUCACUGACAAGAGAAUAGAAACAAUAUGCCCACAUUGCUAUGUUUAUAAUUGCCAGAGCAGUAUUUUUUAUAUUGUAAACAGCGUGCGCAGCUCAGUGUGUGUCAGUGAUGGAAUUCUCGGGUGCCAA,0.389
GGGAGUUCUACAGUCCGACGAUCGGCGAAAGGGGCCUUGGCUCUUGCCCUGUGGCAGUGACCUUGGGGUCCGUACUAUGCCCAGGUGUCAGCAGGAAACAAGGCCUUGCUCACAGGAGCACAGGCUGUACCACUGGAAUUCUCGGGUGCCAA,0.243
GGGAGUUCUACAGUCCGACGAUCAGUCCCAGCCUCAGCAGGCUGCUUGUCUUCAGUUGAUGGUGGAUUAAUGACAGAAGGAAGCCCCGCCCCUCACUGCUGUCAAAGCCUUCAGUAAACAUGUGAAUCCUGAAUGGAAUUCUCGGGUGCCAA,0.252
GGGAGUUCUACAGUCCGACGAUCCACAAGGUCAGGAGAUCAAGACCAUCCUGGCUAACACGGUGAAACCCUGUCUCUACUAAAAAUACAAAAAUUAGCCGGGCGUGGUGGCGGGCGCCUGUAGUCCCAGCUACUGGAAUUCUCGGGUGCCAA,0.345
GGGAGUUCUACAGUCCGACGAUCAGACUUGCAGGCAAUAAUCUCCGCCCUCCCAGUUGUACCUCCUCCCCACCUGCUUAUUUAAAAUCAAGUUUAUUGUAGAAAUGGUGUGGUGUUGAUGUGUGUUUUCCCUAUGGAAUUCUCGGGUGCCAA,0.335
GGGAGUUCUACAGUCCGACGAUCAAACCUGGAGGCAGGAACAUAGCAGAUUUAAGGGGUACCCAGCUGUGGAAGGUCAUUCCUGAGAAGUGGGGGCUUGUUUUAUGAAACCUUAAAGGCCAAACGGACUGUCCUGGAAUUCUCGGGUGCCAA,0.642
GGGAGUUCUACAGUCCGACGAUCUGAGAUCUAAUUCCAAGGACUUCUCCACAGCUAAGUGAGAUGCCUCACACCAUUAGGUGAUGCUUUGGACAGAACAGAGUAUUUUCAUCUUGUGUUUAAAGCAAUUCCUUUGGAAUUCUCGGGUGCCAA,0.316
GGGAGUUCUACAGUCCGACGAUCAACCCUGUCAAACAUUAGUACUUUUUAGAAGAAUGCAUGCUUUCCAUAUUUUUUUCCUUACAUAAACAUCAGCUUAGGCAGUAUAAAAAAUAGGACUUGUUUUUUGUUUUUGGAAUUCUCGGGUGCCAA,9.8
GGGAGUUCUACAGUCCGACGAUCCCUGCCCCUGGACACCUGCUGACAGCUCCCACACAGAACAGUCUGAGGUGAUGCUGGCUACAGCCCUGGCAGCCCAUGGCAACUCAAAGUGCCUUCCAAACCAAACUGCCUGGAAUUCUCGGGUGCCAA,0.386
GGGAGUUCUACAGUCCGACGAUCUAAUCGCCUUUGCUUGCCUGUCGUCAGUGCAGCGAGCUGAGGCACUUGUCCGUUCGUCUUACCAUCUAACCAAACAAAAGACAAAGAAAUUGUUGUCCUCCAACUCAGCUUGGAAUUCUCGGGUGCCAA,0.172
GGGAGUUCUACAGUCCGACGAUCUCCCUGGACACCUUGGUCUGGCUCUUGUGCCAAGGGCUGAAGGAGGUACCCUCUUGGCAGAUGGGGGCAUCACUUGCUUCCUUUGGGAAGCUCUAAGGUUGCUGCAGUCAUGGAAUUCUCGGGUGCCAA,0.408

# Set 4 — method: aptamer microarray, sandwich; molecule type: DNA with 2'F-ANA; matrix: in vitro; tested at: 200 nM; together with: Cy3 exosite-II aptamer, 400 nM; reading: higher = stronger binding; strand: GGTTGGTGTGGTTGG
# Target: Prothrombin, mature alpha-thrombin (F2, Homo sapiens, UniProt P00734)
# Setting: whole 15-mer aptamer, many near background
Modification,mean fluorescence intensity [a.u.]
2'F-ANA at 1 2 8 9 10 11 15,55.1
2'F-ANA at 1 4 6 10 11 13 14 15,54.1
2'F-ANA at 1 3 4 7 9 10 11 15,60.4
2'F-ANA at 3 4 7 11,617
2'F-ANA at 1 2 3 8 9 10 11 14 15,52.7
2'F-ANA at 1 2 3 4 6 7 8 12 14 15,154
2'F-ANA at 5 6 8 11 12 14 15,69.7
2'F-ANA at 1 2 3 7 9 10 11 12 13 15,81.4
2'F-ANA at 1 2 5 6 7 8 14,55.2
2'F-ANA at 1 3 6 7 9 11 12 15,346
2'F-ANA at 1 2 3 5 8 9 11 12 13 15,72.7
2'F-ANA at 1 7 8 9 11 12 13 14,109
2'F-ANA at 5 7 9 10 12 13 14 15,44.7
2'F-ANA at 3 11 14 15,519
2'F-ANA at 1 2 4 5 6 8 12 15,110
2'F-ANA at 3 7 9 10 11,545

# Some of these lines once more (set 1):
Strand,E-score
CGACAGTA,-0.0249
CCCAAATA,0.0203
TGAACGAA,0.0487
CAAGTGAC,-0.098
AGTGCTGC,-0.154
CGGTCCTA,-0.283
CTTGACTA,-0.0447
CTGACAAG,0.0275
AGGCTTGC,-0.11
ACTAACCT,0.0051
TAGCGACA,0.15
ACATTCAA,0.152
